Experimental data from different studies.
Every numbered part comes from another study and shows a few of its results, in no order.

Sample 1
Target: Interferon regulatory factor 5, full length, phosphomimetic (IRF5, Homo sapiens, UniProt Q13568-2, residues 1-514, K96S/S451D/S453D/S456D/S462D)
Technique: protein-binding microarray
Form: double-stranded DNA, one strand shown
Medium: in vitro
Tested at: 250 nM
Notes: 60-bp whole probe
Together with: salmon DNA 0.4 mg/ml
Reference: random background probes
Reading: higher = stronger binding
All sequences stand within: GCCTAGCAC … GTCTTGATTCGCTTGACGCTGCTG
Strand	log fluorescence [z-score]
CTAATTTTTACTTTCTGAATGTGCTAG	3.76
TTAGGCCTGGACTATCGGTTAGTGCTA	4.79
TTAGGTCTCGGTATCGGTTCGTGCTAG	3.93
GGCGGTATCGACTATCGGGACGTGCTA	3.8
TACGGACTGGACTATCGGGACGTGCTA	0.856

Sample 2
Target: RNA binding protein fox-1 homolog 2, RRM domain, GST-SBP tag (RBFOX2, Homo sapiens, UniProt O43251-10, residues 100-194)
Technique: RNA Bind-n-Seq
Form: RNA
Medium: in vitro
Tested at: 365 nM
Notes: natural RNA segment, single round, ends assumed
Reference: no-protein control
Reading: higher = stronger binding
Strand	RBNS enrichment (R)
GGGAGUUCUACAGUCCGACGAUCCGAGGGUCCUUACUGCUGUGUACCAACACUGACCCCGCCCUCUCUGAGCUGUACUCUCUGCCCGUGACUAUGGCCUCUGUCAUUGCUCCGUUCCAACCACCCCCCCCCCCUGGAAUUCUCGGGUGCCAA	0.693
GGGAGUUCUACAGUCCGACGAUCACACACACACUGCCCUGGGGACCAUCCAUGCCCAUCAAACCAAAGGGAAACUCAAACCCCUGGGAAGGUUUCACUCCCCUGAAGAGAGAGAGGAGCCAUAUCUCUCUUUCUGGAAUUCUCGGGUGCCAA	0.597
GGGAGUUCUACAGUCCGACGAUCACUCUGGUUCUUUUAAAAUUAAUUUUGGUUGGUGUUGGGGGAGGCGCGAGUGCGUGUGAGAAGAACCGACCCACCCCGCGCAAGGGGAAGCCUCCUGUCUCCCCUUUCCCUGGAAUUCUCGGGUGCCAA	0.477

Sample 3
Target: Sal-like protein 4, full length isoform B (SALL4, Homo sapiens, UniProt Q9UJQ4-2, residues 1-616)
Technique: universal PBM
Form: double-stranded DNA, one strand shown
Medium: in vitro
Tested at: not given
Notes: 8-mer, flanks averaged, mean of replicates
Reading: higher = stronger binding
Target sequence (chain): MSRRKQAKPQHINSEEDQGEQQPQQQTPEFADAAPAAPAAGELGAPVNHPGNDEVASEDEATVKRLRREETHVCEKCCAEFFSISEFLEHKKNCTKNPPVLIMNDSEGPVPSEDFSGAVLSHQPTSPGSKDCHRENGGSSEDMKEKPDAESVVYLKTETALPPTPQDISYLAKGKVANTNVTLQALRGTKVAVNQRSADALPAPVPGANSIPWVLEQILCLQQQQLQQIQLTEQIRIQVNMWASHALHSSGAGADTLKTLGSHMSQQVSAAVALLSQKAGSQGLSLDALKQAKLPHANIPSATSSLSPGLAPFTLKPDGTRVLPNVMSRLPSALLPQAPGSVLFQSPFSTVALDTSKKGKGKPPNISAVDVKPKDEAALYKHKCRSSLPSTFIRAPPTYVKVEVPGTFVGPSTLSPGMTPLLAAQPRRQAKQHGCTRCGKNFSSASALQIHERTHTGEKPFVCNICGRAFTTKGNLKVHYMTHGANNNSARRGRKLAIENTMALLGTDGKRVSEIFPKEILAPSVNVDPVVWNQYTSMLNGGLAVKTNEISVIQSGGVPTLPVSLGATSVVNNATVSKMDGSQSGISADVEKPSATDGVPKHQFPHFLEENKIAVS
Strand	E-score
AGGTGTAA	-0.00462
GGAAACCC	-0.203
AAAACCGA	-0.00746
AGGCATTA	0.0206
CACTGGGA	-0.157

Single results of other studies
Substance	target	assay	system	setting	scale	quantity	result
PhoQ, residues 284 288 289 292 302 303 AGHLVA	PhoP, residues 12 14 15 18 19 SPWRL (Escherichia coli, UniProt P23836)	Sort-seq, item: YFP reporter	E. coli	PhoQ-PhoP variant library, together with: 10 µM Mg2+	reference: high Mg2+ state, higher = stronger signaling	fold induction	0.968
